Measured values collected from several papers.
Lines come from different studies, so protocols differ.
HTR1F: 5-hydroxytryptamine receptor 1F (HTR1F, Homo sapiens, UniProt P30939)
UniProt P30939, sequence (whole entry, looked up): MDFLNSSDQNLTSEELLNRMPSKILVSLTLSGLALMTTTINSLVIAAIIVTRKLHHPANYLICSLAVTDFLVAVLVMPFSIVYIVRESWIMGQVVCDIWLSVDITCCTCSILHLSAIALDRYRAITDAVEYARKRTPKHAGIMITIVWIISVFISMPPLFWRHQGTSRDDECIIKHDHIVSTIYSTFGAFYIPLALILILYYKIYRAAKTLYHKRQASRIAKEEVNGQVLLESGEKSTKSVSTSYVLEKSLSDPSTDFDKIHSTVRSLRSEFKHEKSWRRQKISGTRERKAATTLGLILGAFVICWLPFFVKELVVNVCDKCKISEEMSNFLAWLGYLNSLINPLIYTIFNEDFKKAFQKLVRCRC
MTNR1A: Melatonin receptor type 1A (MTNR1A, Homo sapiens, UniProt P48039)
UniProt P48039, sequence (whole entry, looked up): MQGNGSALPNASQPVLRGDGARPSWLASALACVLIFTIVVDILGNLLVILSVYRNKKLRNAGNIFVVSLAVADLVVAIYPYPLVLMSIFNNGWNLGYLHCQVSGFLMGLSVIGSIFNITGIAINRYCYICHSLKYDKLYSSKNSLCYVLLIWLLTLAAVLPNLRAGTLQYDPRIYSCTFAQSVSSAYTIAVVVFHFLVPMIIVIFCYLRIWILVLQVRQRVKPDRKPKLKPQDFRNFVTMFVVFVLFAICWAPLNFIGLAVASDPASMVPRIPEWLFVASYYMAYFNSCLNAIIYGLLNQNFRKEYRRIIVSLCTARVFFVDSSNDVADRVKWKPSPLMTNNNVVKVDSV
MTNR1B: Melatonin receptor type 1B (MTNR1B, Homo sapiens, UniProt P49286)
UniProt P49286, sequence (whole entry, looked up): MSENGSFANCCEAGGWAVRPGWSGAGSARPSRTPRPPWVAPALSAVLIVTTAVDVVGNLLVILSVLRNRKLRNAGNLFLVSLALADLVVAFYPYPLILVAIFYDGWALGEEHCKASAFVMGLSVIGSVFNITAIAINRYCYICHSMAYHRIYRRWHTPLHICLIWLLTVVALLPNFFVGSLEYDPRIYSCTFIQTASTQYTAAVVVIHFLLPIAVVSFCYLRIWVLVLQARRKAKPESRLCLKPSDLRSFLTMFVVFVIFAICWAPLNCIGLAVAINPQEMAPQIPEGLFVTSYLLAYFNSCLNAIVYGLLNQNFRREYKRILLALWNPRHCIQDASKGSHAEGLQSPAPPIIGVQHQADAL
AVPR2: Vasopressin V2 receptor (AVPR2, Homo sapiens, UniProt P30518)
UniProt P30518, sequence (whole entry, looked up): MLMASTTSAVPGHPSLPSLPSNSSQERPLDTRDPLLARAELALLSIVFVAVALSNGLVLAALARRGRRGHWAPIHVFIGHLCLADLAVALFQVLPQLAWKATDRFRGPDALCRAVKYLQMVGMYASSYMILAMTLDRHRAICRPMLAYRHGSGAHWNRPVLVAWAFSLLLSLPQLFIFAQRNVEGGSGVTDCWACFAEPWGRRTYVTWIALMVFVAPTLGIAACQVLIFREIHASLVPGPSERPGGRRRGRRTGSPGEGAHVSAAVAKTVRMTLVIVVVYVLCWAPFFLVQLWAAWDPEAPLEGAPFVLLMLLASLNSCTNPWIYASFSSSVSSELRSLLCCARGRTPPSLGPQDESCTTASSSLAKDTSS
GPR84: G-protein coupled receptor 84 (GPR84, Homo sapiens, UniProt Q9NQS5)
UniProt Q9NQS5, sequence (whole entry, looked up): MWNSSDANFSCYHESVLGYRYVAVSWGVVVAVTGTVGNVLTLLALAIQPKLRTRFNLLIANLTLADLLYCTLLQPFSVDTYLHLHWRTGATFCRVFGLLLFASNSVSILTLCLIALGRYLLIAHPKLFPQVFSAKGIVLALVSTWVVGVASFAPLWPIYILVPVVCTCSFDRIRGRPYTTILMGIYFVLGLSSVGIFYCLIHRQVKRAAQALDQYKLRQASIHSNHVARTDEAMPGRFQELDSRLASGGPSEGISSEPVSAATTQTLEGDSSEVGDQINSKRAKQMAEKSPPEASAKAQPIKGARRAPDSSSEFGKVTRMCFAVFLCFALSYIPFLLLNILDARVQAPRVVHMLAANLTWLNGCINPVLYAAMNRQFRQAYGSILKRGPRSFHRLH
RARA: Retinoic acid receptor alpha (RARA, Homo sapiens, UniProt P10276)
UniProt P10276, sequence (whole entry, looked up): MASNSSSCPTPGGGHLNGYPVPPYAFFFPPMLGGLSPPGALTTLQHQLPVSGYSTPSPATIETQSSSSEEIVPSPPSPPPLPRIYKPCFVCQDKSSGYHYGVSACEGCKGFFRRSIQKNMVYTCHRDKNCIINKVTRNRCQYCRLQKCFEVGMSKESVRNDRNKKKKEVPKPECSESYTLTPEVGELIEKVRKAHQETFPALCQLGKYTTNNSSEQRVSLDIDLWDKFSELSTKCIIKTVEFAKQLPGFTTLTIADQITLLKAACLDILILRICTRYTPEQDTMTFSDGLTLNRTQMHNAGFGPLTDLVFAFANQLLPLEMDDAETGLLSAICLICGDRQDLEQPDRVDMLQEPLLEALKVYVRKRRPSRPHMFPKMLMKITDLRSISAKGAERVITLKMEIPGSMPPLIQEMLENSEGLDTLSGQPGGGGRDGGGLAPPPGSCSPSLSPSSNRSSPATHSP
UniProt P0DMS8, sequence (whole entry, unmodified, looked up): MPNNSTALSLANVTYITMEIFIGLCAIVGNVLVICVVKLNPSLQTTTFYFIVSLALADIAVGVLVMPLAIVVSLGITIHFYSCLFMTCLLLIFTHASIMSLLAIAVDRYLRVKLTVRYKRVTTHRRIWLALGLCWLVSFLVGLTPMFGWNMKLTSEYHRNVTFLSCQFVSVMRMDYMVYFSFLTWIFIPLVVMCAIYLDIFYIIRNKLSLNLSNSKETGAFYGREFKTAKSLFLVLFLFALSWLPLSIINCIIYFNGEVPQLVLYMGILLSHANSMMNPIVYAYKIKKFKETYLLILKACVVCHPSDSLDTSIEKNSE
UniProt P41968, sequence (whole entry, looked up): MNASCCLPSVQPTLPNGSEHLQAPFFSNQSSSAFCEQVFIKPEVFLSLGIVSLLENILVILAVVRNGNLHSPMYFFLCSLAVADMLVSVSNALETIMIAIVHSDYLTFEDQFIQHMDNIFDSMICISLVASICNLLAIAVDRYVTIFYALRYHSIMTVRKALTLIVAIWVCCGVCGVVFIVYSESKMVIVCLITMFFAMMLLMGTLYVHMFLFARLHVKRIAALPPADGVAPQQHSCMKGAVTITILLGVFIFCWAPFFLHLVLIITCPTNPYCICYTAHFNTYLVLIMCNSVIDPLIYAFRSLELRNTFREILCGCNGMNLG
UniProt Q01959, sequence (whole entry, looked up): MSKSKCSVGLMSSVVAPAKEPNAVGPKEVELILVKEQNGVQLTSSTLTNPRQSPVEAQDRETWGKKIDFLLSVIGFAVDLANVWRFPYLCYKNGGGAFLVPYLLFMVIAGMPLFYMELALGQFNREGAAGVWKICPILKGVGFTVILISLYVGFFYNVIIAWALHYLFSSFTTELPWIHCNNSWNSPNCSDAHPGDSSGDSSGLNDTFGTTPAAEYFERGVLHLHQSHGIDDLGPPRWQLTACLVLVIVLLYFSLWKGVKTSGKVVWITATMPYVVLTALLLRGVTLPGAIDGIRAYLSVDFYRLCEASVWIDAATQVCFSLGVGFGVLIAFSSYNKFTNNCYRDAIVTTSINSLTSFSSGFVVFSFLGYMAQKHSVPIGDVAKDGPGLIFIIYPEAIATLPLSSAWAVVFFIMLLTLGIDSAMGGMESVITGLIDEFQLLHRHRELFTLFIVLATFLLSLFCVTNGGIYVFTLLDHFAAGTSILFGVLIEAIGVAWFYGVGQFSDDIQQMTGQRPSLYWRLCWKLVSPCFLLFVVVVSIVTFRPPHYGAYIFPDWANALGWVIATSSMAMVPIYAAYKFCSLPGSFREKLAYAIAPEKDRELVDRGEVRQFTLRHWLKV
UniProt P34972, sequence (whole entry, looked up): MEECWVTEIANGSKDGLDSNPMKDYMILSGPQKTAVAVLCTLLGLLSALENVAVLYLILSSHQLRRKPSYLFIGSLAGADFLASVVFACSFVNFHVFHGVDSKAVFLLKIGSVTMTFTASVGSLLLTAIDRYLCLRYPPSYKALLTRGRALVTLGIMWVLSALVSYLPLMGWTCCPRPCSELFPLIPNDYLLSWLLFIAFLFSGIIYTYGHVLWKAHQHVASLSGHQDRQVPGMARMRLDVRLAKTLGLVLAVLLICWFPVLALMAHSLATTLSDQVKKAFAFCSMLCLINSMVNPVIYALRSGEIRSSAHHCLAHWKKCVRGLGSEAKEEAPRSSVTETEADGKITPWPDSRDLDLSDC
UniProt Q9UKP6, sequence (whole entry, looked up): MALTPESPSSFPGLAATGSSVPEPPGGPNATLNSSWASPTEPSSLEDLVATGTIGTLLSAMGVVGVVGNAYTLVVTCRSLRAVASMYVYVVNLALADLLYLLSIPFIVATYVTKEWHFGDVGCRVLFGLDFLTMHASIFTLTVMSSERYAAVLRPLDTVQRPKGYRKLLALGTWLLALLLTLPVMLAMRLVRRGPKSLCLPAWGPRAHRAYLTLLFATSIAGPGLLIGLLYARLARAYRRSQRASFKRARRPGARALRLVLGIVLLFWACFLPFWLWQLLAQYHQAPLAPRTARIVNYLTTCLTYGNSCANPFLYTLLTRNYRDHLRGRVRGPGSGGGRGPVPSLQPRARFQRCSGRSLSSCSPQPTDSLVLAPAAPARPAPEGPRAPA
UniProt Q16581, sequence (whole entry, looked up): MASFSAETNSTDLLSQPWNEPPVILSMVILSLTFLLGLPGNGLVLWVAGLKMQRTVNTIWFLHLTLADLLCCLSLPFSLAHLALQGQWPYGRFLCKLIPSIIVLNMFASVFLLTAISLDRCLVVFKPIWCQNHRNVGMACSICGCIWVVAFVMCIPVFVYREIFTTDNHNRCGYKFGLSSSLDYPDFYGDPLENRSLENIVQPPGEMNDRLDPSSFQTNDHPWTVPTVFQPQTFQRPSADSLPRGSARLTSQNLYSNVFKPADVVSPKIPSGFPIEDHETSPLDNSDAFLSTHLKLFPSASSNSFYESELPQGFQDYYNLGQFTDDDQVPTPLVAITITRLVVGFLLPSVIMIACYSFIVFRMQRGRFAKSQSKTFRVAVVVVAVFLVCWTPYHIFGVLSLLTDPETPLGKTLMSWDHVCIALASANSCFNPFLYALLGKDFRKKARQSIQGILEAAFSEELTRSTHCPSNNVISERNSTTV

`CN(C)CCC=C1c2ccccc2C=Cc2ccccc21` has an EC50 of 1.88 µM (HTR1F; G protein activation, agonist, BRET).
`COc1cc(C)nc(CN2CCOc3ccc(OC)cc32)c1` has an EC50 of 0.159 µM (MTNR1A; cAMP, agonist, luciferase).
With `CC(C)C[C@H](NC(=O)[C@@H](N)[C@@H](C)O)C(=O)N[C@@H](CCC(N)=O)C(=O)N1CCC[C@H]1C(=O)N1CCC[C@H]1C(=O)N[C@@H](C)C(=O)N[C@@H](CO)C(=O)N[C@@H](CO)C(=O)N[C@@H](CCCNC(=N)N)C(=O)N[C@H](CCCNC(=N)N)C(=O)N[C@@H](CCCNC(=N)N)C(=O)N[C@@H](Cc1c[nH]cn1)C(=O)N[C@@H](Cc1ccccc1)C(=O)N[C@@H](Cc1c[nH]cn1)C(=O)N[C@@H](Cc1c[nH]cn1)C(=O)N[C@@H](C)C(=O)N[C@@H](CC(C)C)C(=O)N1CCC[C@H]1C(=O)N1CCC[C@H]1C(=O)N[C@H](C)C(=O)N[C@@H](CCCNC(=N)N)C(=O)O` the EC50 was 0.00715 µM (C3a anaphylatoxin chemotactic receptor (C3AR1, Homo sapiens, UniProt Q16581); G protein activation, agonist, BRET).
For `O=C(NCCc1cccc2ccccc12)C1CCC1`, the EC50 was 0.288 µM (MTNR1B; β-arrestin recruitment, agonist).
With `CC(C)=CCNc1ncnc2c1ncn2[C@@H]1O[C@H](CO)[C@@H](O)[C@H]1O` the EC50 was 1.8 µM (Adenosine receptor A3 (ADORA3, Homo sapiens, UniProt P0DMS8, I253Q/V169F); G protein activation, agonist).
`C=CCN1C[C@H](C(=O)N(CCCN(C)C)C(=O)NCC)C[C@@H]2c3cccc4[nH]cc(c34)C[C@H]21` has an EC50 of 0.387 µM (HTR1F; G protein activation, agonist, BRET).
With `Clc1ccccc1CNc1cccc(-c2nnc[nH]2)c1` the EC50 was 1.26 µM (MTNR1A; cAMP, agonist, luciferase).
The EC50 of `COc1cc(I)c2[nH]cc(CCNC(C)=O)c2c1` is reported as 0.11 µM (MTNR1B; cAMP, agonist, TR-FRET).
`CC1=NN(/C(=N\c2ccc(Cl)cc2)Nc2nnc(C)s2)C(c2ccc(C)cc2)S1` (stereo not shown) has an EC50 of 22.2 µM (AVPR2; cAMP, positive allosteric modulator).
`Clc1ccc(CNc2cccc(-c3nnc[nH]3)c2)cc1` gave an EC50 of 0.00347 µM (MTNR1A; cAMP, agonist, luciferase).
For `O=c1cc(NCCc2ccccc2F)[nH]c(=O)[nH]1`, the EC50 was 0.0995 µM (GPR84; cAMP, agonist).
`CC(=O)N[C@H](CCCNC(=N)N)C(=O)N[C@H]1CSSC[C@@H](C(N)=O)NC(=O)[C@H](Cc2c[nH]c3ccccc23)NC(=O)[C@H](CCCNC(=N)N)NC(=O)[C@@H](Cc2ccccc2)NC(=O)[C@H](Cc2c[nH]cn2)NC(=O)[C@H](CCC(=O)O)NC1=O` has an EC50 of 0.0042 µM (Melanocortin receptor 3 (MC3R, Homo sapiens, UniProt P41968); cAMP, agonist).
With `CC1=NN(/C(=N\c2ccncc2)Nc2nnc(C)s2)C(c2ccc(C)cc2)S1` (stereo not shown) the EC50 was over 50 µM (AVPR2; cAMP, positive allosteric modulator).
With `CCCCC(=O)Nc1ccc(-c2ccc3ncn(CCC)c(=O)c3c2)cn1` the remaining binding was 100% (Receptor-type tyrosine-protein kinase FLT3 (FLT3, Homo sapiens, UniProt P36888, D835H); binding, competition with immobilised ligand; 0.5 µM).
The EC50 of `O=C(/C=C/c1ccccc1)/C=C/c1ccccc1O` is reported as 2.02 µM (Sterol carrier protein 2 (Aedes aegypti, UniProt Q86PR3); ligand displacement, fluorescence).
`Cc1cc(NC(=O)NCCN2CCC(O)(Cc3ccccc3)CC2)c2ccccc2n1` gave an EC50 of 0.0955 µM (Urotensin-2 receptor (UTS2R, Homo sapiens, UniProt Q9UKP6); G protein activation, agonist, BRET).
For `COc1ccc(CNc2cncc(C)c2)cc1`, the EC50 was 2.66 µM (MTNR1A; cAMP, agonist, luciferase).
`N#C[C@@]12C[C@@H]1[C@@H](n1cnc3c(Nc4ccccc4)nc(I)nc31)[C@H](O)[C@@H]2O` gave an EC50 of 2.2 µM (Sodium-dependent dopamine transporter (SLC6A3, Homo sapiens, UniProt Q01959); ligand displacement, radioligand).
For `CC1=NN(/C(=N\c2ccccc2)Nc2nnc(C)s2)C(c2ccc(C)cc2)S1` (stereo not shown), the EC50 was over 50 µM (AVPR2; cAMP, positive allosteric modulator).
With `COC(=O)c1cccc(N(C)CC2CCCC2O)n1` (stereo not shown) the EC50 was 0.0213 µM (MTNR1A; cAMP, agonist, luciferase).
For `CCCN1C[C@H](CSC)C[C@@H]2c3cccc4[nH]cc(c34)C[C@H]21`, the EC50 was 0.807 µM (HTR1F; G protein activation, agonist, BRET).
`O=c1cc(NCCc2c[nH]c3ccccc23)[nH]c(=O)[nH]1` has an EC50 of 1.39 µM (GPR84; cAMP, agonist).
The EC50 of `CCc1ccc2scc(CCNC(C)=O)c2c1` is reported as 0.0138 µM (MTNR1B; GTPγS binding, agonist, radiometric; cell membranes).
`CN1CCC(=C2c3ccccc3C=Cc3ccccc32)CC1` gave an EC50 of 0.423 µM (HTR1F; G protein activation, agonist, BRET).
`Cn1c(=O)oc2c(NCc3ncnn3CC(F)F)cccc21` has an EC50 of 5.6 µM (MTNR1A; cAMP, agonist, luciferase).
The EC50 of `CCOc1c(Br)cc(C(=O)Nc2ccc(C(=O)O)cc2)cc1C(=O)c1ccc(C)cc1` is reported as 0.0028 µM (RARA; reporter gene, antagonist, luciferase).
`CN1CCN(C2=Nc3cc(Cl)ccc3Nc3ccccc32)CC1` gave an EC50 of 0.264 µM (HTR1F; G protein activation, agonist, BRET).
With `CC1=NN(/C(=N\c2ccc(C)c(C)c2)Nc2nnc(C)s2)C(c2ccc(C)cc2)S1` (stereo not shown) the EC50 was over 50 µM (AVPR2; cAMP, positive allosteric modulator).
With `COc1cc2c(CCNC(C)=O)c[nH]c2cc1I` the EC50 was 0.00661 µM (MTNR1B; cAMP, agonist, TR-FRET).
`CCC1=NN(/C(=N/c2nnc(CC)s2)Nc2ccc(C)c(C)c2)C(c2cc(F)c(F)c(F)c2)S1` (stereo not shown) has an EC50 of over 50 µM (AVPR2; cAMP, positive allosteric modulator).
The EC50 of `Cc1ccc(C2=CCC(C)(C)c3cc(C(/C=C/c4ccc(C(=O)O)cc4)=N/O)ccc32)cc1` is reported as over 5 µM (RARA; reporter gene, antagonist, luciferase).
The EC50 of `CN1CCc2cc(Cl)c(O)cc2[C@@H](c2ccccc2)C1` is reported as 3.35 µM (HTR1F; G protein activation, agonist, BRET).
For `COC(=O)c1sc(N(C)Cc2cnccc2C)nc1Cl`, the EC50 was 0.0231 µM (MTNR1A; cAMP, agonist, luciferase).
For `COc1ccc2[nH]cc(CCNC(C)=O)c2c1I`, the EC50 was 0.0525 µM (MTNR1B; β-arrestin recruitment, agonist).
`Oc1cc(NCCc2ccccc2)nc(O)n1` gave an EC50 of 0.2 µM (GPR84; cAMP, agonist).
The EC50 of `CCCCC/C=C\C/C=C\C/C=C\Cc1ccccc1CCCC(=O)OC(CO)CO` is reported as 1.94 µM (Cannabinoid receptor 2 (CNR2, Homo sapiens, UniProt P34972); β-arrestin recruitment, agonist).
`CC1=NN(/C(=N\c2ccc(OC(F)(F)F)cc2)Nc2nnc(C)s2)C(c2ccc(C)cc2)S1` (stereo not shown) has an EC50 of 9.2 µM (AVPR2; cAMP, positive allosteric modulator).
For `Cc1cc(C(C)(C)C)c(O)c(C)c1CC1=NCCN1`, the EC50 was 0.0113 µM (HTR1F; G protein activation, agonist, BRET).
With `CN(C)c1ncnc2c1ncn2[C@@H]1O[C@H](CO)[C@@H](O)[C@H]1O` the EC50 was 2.3 µM (Adenosine receptor A3 (ADORA3, Homo sapiens, UniProt P0DMS8, V169L); G protein activation, agonist).
`COc1ccc2ncn(CCNC(C)=O)c2c1` gave an EC50 of 1.12 µM (MTNR1B; cAMP, agonist, TR-FRET).
With `O=S1(=O)c2cccc3cccc(c23)N1CCCN1CCN(c2ccc(F)cc2)CC1` the EC50 was 0.394 µM (HTR1F; G protein activation, agonist, BRET).
`CC1CC1CC(=O)N(Cc1ccccc1)c1ccncc1` (stereo not shown) has an EC50 of 0.0892 µM (MTNR1A; cAMP, agonist, luciferase).
For `CC1=NN(/C(=N/c2nnc(C)s2)Nc2ccc(C)c(C)c2)C(c2ccc(-c3cccc(C(F)(F)F)c3)cc2)S1` (stereo not shown), the EC50 was over 50 µM (AVPR2; cAMP, positive allosteric modulator).

A few entries again:
For `Cc1cc(C(C)(C)C)c(O)c(C)c1CC1=NCCN1`, the EC50 was 0.0113 µM (HTR1F; G protein activation, agonist, BRET).
With `CN(C)c1ncnc2c1ncn2[C@@H]1O[C@H](CO)[C@@H](O)[C@H]1O` the EC50 was 2.3 µM (Adenosine receptor A3 (ADORA3, Homo sapiens, UniProt P0DMS8, V169L); G protein activation, agonist).
`COc1ccc2ncn(CCNC(C)=O)c2c1` gave an EC50 of 1.12 µM (MTNR1B; cAMP, agonist, TR-FRET).
With `O=S1(=O)c2cccc3cccc(c23)N1CCCN1CCN(c2ccc(F)cc2)CC1` the EC50 was 0.394 µM (HTR1F; G protein activation, agonist, BRET).
`CC1CC1CC(=O)N(Cc1ccccc1)c1ccncc1` (stereo not shown) has an EC50 of 0.0892 µM (MTNR1A; cAMP, agonist, luciferase).
For `CC1=NN(/C(=N/c2nnc(C)s2)Nc2ccc(C)c(C)c2)C(c2ccc(-c3cccc(C(F)(F)F)c3)cc2)S1` (stereo not shown), the EC50 was over 50 µM (AVPR2; cAMP, positive allosteric modulator).
